Experimental data collected from several papers.
Parts stem from different laboratories: compare values within a part only. Substitutions count along the parent as printed.

Block 1
Target: RING finger protein unkempt homolog, zinc fingers 1-6, GST-SBP tag (UNK, Homo sapiens, UniProt Q9C0B0, residues 30-357)
Technique: RNA Bind-n-Seq
Form: RNA
Medium: in vitro
Concentration: not given
Setting: RNA with constant flanks, human-mouse chimeric sites, ends assumed
Relative to: input RNA pool
Reading: higher = stronger binding
All sequences stand within: GGGAGUUCUACAGUCCGACGAUC … CAACAGAGGAUUGAGCAUCA
Target sequence (chain): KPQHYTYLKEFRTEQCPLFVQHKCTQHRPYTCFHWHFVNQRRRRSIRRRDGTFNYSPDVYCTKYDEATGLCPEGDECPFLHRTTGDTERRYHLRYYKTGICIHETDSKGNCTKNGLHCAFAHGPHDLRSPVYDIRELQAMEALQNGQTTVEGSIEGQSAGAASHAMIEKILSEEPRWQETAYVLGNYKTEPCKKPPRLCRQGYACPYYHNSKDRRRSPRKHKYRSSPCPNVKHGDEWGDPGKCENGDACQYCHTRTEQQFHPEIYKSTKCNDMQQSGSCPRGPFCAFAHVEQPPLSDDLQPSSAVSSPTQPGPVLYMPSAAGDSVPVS
Oligonucleotide | bound/input enrichment [ratio]
AUGGAACAUUUCGAUGCAUCACUUAGUACCUAUUUCAAGGCCUUCCUGGGCCCCCGAGAUACAAGAGUCAAAGGAUGGUUCCUCCUGGACAAUUACAUCCCUACGUUUAUCUGCUCUGUU | 0.29
GUACUGCAGCAGCAGGGAAAACUGCAGGAAGCACUGAUGCAUUAUAAGGAGGCUAUUCGAAUCAGUCCUACCUUUGCUGAUGCUUAUUCUAAUAUGGGAAACACUCUAAAGGAGAUGCAG | 0.338
CACAGAGGCACCACCCCCCCCUCCUCCUUUCCACACCUGCAAACCCUUUUACUUGGGCUGAAUAUUUAGUGUAAUUACAUCUCAGCUUUGAGGGCUCCUGUGGCAAAUUCCCGGAUUAAA | 0.97
GUUGCCAGCUUCCGGUUGGCCUCCAUCCGGUUCUCUCAGUGCUACGUUGUCUCUACGCUCUCAAUCCGCCAUCCAACAAACAUGGAUCAGGUAAUGCAGUUUGUGGAGCCCAGCCGGCAG | 0.115
GGGACUGAUUCAUUCCAAGGACAGGCCACCCCAUUUGGUGUUUGGAAUGAUGACAGUAUGGAAGGGCCUAGUCAAAAUGUUGAAGCUGAGUCAAUUCAGGAUGCCAUGAGUAUGGAAGAG | 0.331
UGGCGCCUGCGCUCCCCGUUUUUAAAUUUAAGUGUAUUUUUAUAAGAUACAUGUAUUUACAAUUGAGCUUUUGUUACAUAAUGCUGAAAUGCUACUGGAGAUUAUGAAAAAAUGUUAAAU | 0.361
GAAUCCUACUCAGGCGGAUUUUGCAACACCAAGCUCACAGCAGCAGCAUCUUAGUCACAGUAGGGUAGUUUUGGGGCAAUAUUGCCAGGGUUUUAUUCACAUGCAGGUUUUGAAAAUGUA | 4.12
UAAAUUAGGGCUGCCGUUUUCUGUUUCUCCCUGGGCUGCGGAAAGCCAGAAGAUUUUAUCUAGUUUGUACAAGGCUGCUGGUGUUCCCUCCCUCCCGCCACGAGGGUGUUUUUGGCUGCA | 1
AAAGAGUGGAUAGAAUGUGCACACGGGAUCGGUGGGACCCGGGCGAAAAAGGAGUGCAAGAUAGAGUUCGAUGACUUCGAAGAGUGCUUGCUUCGGUAGAAAACGAUGAGGCGAAUGCAU | 0.471
UUUGUAUUCAUGUUAAGCACACGUGCUGGUGGUCUGGGCAUCAAUCUUGCGACUGCUGAUGUAGUCAUUUUAUAUGACUCAGAUUGGAAUCCGCAAGUUGAUCUUCAGGCUAUGGACCGU | 0.0853
AAAGUGAUAACCAUGUUUGUCCAACGACAGGUAUUUUCGGAGAGCAAAGAUGAGAUUGCGUUAGUCCUGUUUGGUACAGAUGGCACUGAUAAUGCCCUUGCUGGCAAGGACCAGUAUCAG | 0.148

Block 2
Target: ABI1, truncated, D143A, DHFR fusion (Arabidopsis thaliana)
Technique: DHFR PCA, deep sequencing
Medium: yeast
Setting: methotrexate growth selection, single substitutions
Together with: (+)-ABA 200 µM
Relative to: wild-type fitted maximum
Reading: higher = stronger binding
Starting sequence: PYL1, truncated, DHFR fusion (Arabidopsis thaliana); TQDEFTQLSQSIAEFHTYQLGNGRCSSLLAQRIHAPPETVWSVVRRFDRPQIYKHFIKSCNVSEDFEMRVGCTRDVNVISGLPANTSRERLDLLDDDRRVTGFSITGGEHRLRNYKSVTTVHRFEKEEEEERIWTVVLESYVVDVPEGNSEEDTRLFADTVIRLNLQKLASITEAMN; partner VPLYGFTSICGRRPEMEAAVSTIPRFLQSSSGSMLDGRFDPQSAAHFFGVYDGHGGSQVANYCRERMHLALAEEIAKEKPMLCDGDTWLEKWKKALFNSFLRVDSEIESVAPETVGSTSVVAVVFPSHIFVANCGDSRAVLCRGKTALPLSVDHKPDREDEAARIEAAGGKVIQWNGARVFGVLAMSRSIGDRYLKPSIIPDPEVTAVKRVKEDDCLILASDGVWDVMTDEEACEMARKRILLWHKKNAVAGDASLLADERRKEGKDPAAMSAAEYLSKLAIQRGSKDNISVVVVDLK
Substitution | relative binding score
V78G | 11.9%
P83T | 16.5%
S42H | 92.4%
Q19K | 106%
Q31H | 87.2%
E89K | -0.644%
I52M | 100%
P50W | 13.3%
V143T | 93.9%
A158F | 29.3%
V142M | 93.6%
I172L | 94.2%
V143G | 5.74%
T106Q | 94.1%
L156M | 102%
H122T | 49%
L91P | 7.36%
G102H | 1.98%
F157E | -4.38%
V78E | -2.03%
L82I | 99.2%
I33K | 0.181%
A158N | 67.5%
H16D | 5.74%
L82V | 94.3%

Block 3
Target: Histone acetyltransferase KAT6A, winged helix 1, GST fusion (KAT6A, Homo sapiens, UniProt Q92794, residues 1-85)
Technique: protein binding microarray
Form: double-stranded DNA, one strand shown
Medium: in vitro
Concentration: not given
Setting: 8-mer, flanks averaged, mean of 2 arrays, mostly near background
Relative to: not given
Reading: higher = stronger binding
Residues (chain): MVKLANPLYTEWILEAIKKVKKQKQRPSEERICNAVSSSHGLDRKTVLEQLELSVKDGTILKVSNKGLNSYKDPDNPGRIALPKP
Oligonucleotide | E-score
CTGTCCAC | -0.00743
CCATGGCG | 0.205
AATCTCGT | -0.149
TCACAGCA | -0.0423
AACCAACA | -0.157
AGCCTTCG | -0.089
CGGCACAA | 0.182
ATCGGGCC | 0.124
AAGGCCCT | -0.0145
AGCAGCAA | -0.0464
CACGAACG | -0.00958
GCCAGAGA | -0.0945
TGGGTGAA | -0.0467
CCACTTGC | -0.182
ATAGCCTA | -0.0469
CCGGTGGC | 0.211
GAGGAGCC | -0.0865
GTTTAAGA | -0.0508
CATAGGTC | -0.132
ACATCCCT | -0.0653
AACGAGTC | -0.0152
AGCTACCT | -0.0131
TGATGCCA | -0.121
AGGAATGG | -0.146

Block 4
Target: Prothrombin, mature alpha-thrombin (F2, Homo sapiens, UniProt P00734)
Technique: aptamer microarray, sandwich
Form: DNA with 2'F-ANA
Medium: in vitro
Concentration: 200 nM
Setting: whole 15-mer aptamer, many near background
Together with: Cy3 exosite-II aptamer, 400 nM
Reading: higher = stronger binding
Oligonucleotide: GGTTGGTGTGGTTGG
Modification | mean fluorescence intensity [a.u.]
2'F-ANA at 2 5 6 9 10 14 15 | 52.4
2'F-ANA at 5 6 8 9 10 11 15 | 45.7
2'F-ANA at 2 3 4 5 6 7 8 9 12 14 | 58.9
2'F-ANA at 1 3 4 6 7 8 12 15 | 423
2'F-ANA at 2 3 5 8 11 13 14 | 52.7
2'F-ANA at 2 4 5 6 7 8 10 11 12 | 51.2
2'F-ANA at 1 2 3 6 12 15 | 450
2'F-ANA at 1 2 3 4 5 6 8 9 11 12 13 14 15 | 53.6
2'F-ANA at 4 5 6 7 8 9 12 | 159
2'F-ANA at 2 3 7 9 10 11 12 15 | 404
2'F-ANA at 1 2 5 6 9 11 14 | 43.5
2'F-ANA at 2 3 4 5 7 11 12 13 15 | 98.4
2'F-ANA at 3 4 6 13 14 15 | 244
2'F-ANA at 2 7 8 9 10 11 13 15 | 115
2'F-ANA at 1 2 5 6 9 11 12 13 14 15 | 50
2'F-ANA at 2 3 6 7 8 9 10 11 12 14 15 | 239
2'F-ANA at 1 2 5 8 9 12 14 | 48.2
2'F-ANA at 3 4 5 7 9 13 14 15 | 198
2'F-ANA at 1 4 8 10 12 14 | 46.8
2'F-ANA at 1 3 4 6 7 8 9 10 12 13 | 163
2'F-ANA at 3 4 5 8 9 10 11 12 13 14 | 87.8
2'F-ANA at 2 5 6 7 12 13 14 | 47
2'F-ANA at 5 6 7 10 | 46.5

Block 5
Target: RNA binding protein fox-1 homolog 2, RRM domain, GST-SBP tag (RBFOX2, Homo sapiens, UniProt O43251-10, residues 100-194)
Technique: RNA Bind-n-Seq
Form: RNA
Medium: in vitro
Concentration: 365 nM
Setting: natural RNA segment, single round, ends assumed
Relative to: no-protein control
Reading: higher = stronger binding
All sequences stand within: GGGAGUUCUACAGUCCGACGAUC … UGGAAUUCUCGGGUGCCAA
Target sequence (chain): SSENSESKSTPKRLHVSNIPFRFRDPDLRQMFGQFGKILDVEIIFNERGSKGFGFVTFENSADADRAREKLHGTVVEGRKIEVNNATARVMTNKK
Oligonucleotide | RBNS enrichment (R)
CUGUCUUGCCAGAUUACCGACACUGUCACUUGACCAAUACUGACCCUCUUUACCUCGCCCACGCGGACACACGCCUCCUGUAGUCGCUUUGCCUAUUGAUGUUCCUUUGG | 1.79
CUCAAAGCAUCUGACUCACCUGCAUGAUCACAAGCUUUCUUUGACGGUUUCUCCCAUCCGUGUUCCAGCAUCUAACCUUUUACUUUUGCAUAGGAAAUACUUGAUUUAAU | 1.83
UGAAGGAACCAAUAUUUGGACCUUAUUUUGAGGUUGUCUGUCUCGAAGAAAAAGAAAAUAAAAUGUAUAGGCAGGGUUCCUUCAAUUGGCAUUUUCCCCAGAAUUGUGAG | 0.844
AAUACCCUUUGUGCCCUCAAGAAUUAAAAGCCUCUAUGAUCCAGAGUUGCUAUGCACCAAAUUUUGAUGCCUUCUAAAUACCUUGAUGCCUGUAGCACUAGAAAUGCUUU | 0.619
UUACCGGUGUAAAUACCCAGUGUGCUUAUGAGUCAGUUAGUAGACGUCUUCAUUCAUUGGAGUAACUGGUUUAGGCUUUCCAGUUUGGAAAAGGAGCAGAGAGCUGUCCA | 0.337
GCUUUUCUGUCUUCUUCAACCUGGGAGAGACCCUGAAUUUGAGUGUGUUCUCUAAUCAAUAGUGGUUUAGCUUUCUUUUCUAUUUCACUCGUUUCUAGGGUUUUUUAUUU | 0.639
GAUUUCUCUGCAUAAUUUCUCAAUAUCUUUAGCACAGUAUGGUGAUGAUGACUUUUAAGCAUUUACAUCACGUACUCAUAACCUAUUAUGAAAAUAAAUGAAACUGGCUG | 0.673
CCAUGGCUUUUACACUGUCAACGGCUUUACCUACUUUUUAAAAUUAAGUCUUUGAUUUUAUGAUUUAUUUCUGUAUGGCACUGGAUAAAAAUAUUAUUAAAACAUUUCUG | 0.653
CAUGGGUGCUGUGAAGUUGAGAUGAGAAAAUGAUAUGACCUUGCUGUGGGUCUCUGGAUCCUGACCAGUUUGGACUCUGAGUUUUGGGGACCAGGACACUGCGAGGACAG | 0.932
UUAUUUAUUGAACAUUUGGGGUUUCAGUUGUAAAGCCACAACUACAGGUAGGACCUGAUAUUUCGGCGAGGGACCAUUUCAGACCAAAAUGUACUGUUAAUUUUUUUUAA | 0.686
UCUCUGCUGCACCACUGUCAGACUGGGCUCUAACCCAAGUGGAAUGCAACUGAGAGGGUCUUCCUGGGCCCGCCUUCCCCGACAGCCCUAGUGUUACACUGGUUCUGGAG | 0.301
GUAUUUUAGUUGCAGCCUAUUUUUAAUAAACUUUGUAUCUAUUUAAGUGUAUUUGCUAUUGUUUUCAAAGUGCUGACAAAGUUUAUAUUUGUAAUGCCAGCAUUCCUCUU | 0.93

Excerpt of the above (block 4):
Modification | mean fluorescence intensity [a.u.]
2'F-ANA at 2 3 4 5 6 7 8 9 12 14 | 58.9
2'F-ANA at 1 3 4 6 7 8 12 15 | 423
2'F-ANA at 2 3 5 8 11 13 14 | 52.7
2'F-ANA at 2 4 5 6 7 8 10 11 12 | 51.2
2'F-ANA at 1 2 3 6 12 15 | 450
2'F-ANA at 1 2 3 4 5 6 8 9 11 12 13 14 15 | 53.6
2'F-ANA at 4 5 6 7 8 9 12 | 159
2'F-ANA at 2 3 7 9 10 11 12 15 | 404
